Experimental data collected from several papers.
Lines come from different studies, so protocols differ. Numbers after ± are the reported error. Converted amounts (≈) assume the structure as drawn.

Structure (SMILES) | assay | test system | setting | scale | measurement | result
Cc1ccccc1-c1ccc(-c2nc(-c3ccc(CN(C)CCCC(=O)O)c([18F])c3)no2)cc1C(F)(F)F |  | rat, liver | 30 min |  | tracer uptake | 2.56 %ID/g
O=C(CN1CCN(CC(=O)NCP(=O)([O-])[O-])CCN(CC(=O)NCP(=O)([O-])[O-])CCN(CC(=O)NCP(=O)([O-])[O-])CC1)NCP(=O)([O-])[O-].[Gd+3] |  | Sprague-Dawley rats, blood | intravenous, 35 µmol/kg, two-compartment model, added: GdDTPA 68 µmol/kg co-injected |  | elimination half-life beta | 41.7 min
O=C1NC2(CC2)COc2ncc(F)cc2[C@H]2COCCN2c2ccn3ncc1c3n2 |  | Sprague-Dawley rat, male, testes | oral, 2.5 mg/kg/day, 4 weeks, end of treatment |  | organ-to-body weight ratio | 0.751 ± 0.106%
CC(C)N1CCCCC1C(=O)NC(Cc1ccc(-c2ccccc2)cc1)B(O)O (centres unmarked) |  | male Sprague-Dawley rats | oral, 1 mg/kg |  | oral bioavailability | 78%
O=P1(O)CC=Cc2cc(-c3cccc(F)c3)ccc2O1 | HPLC-UV | 50 mM PBS | 16 h, pH 7.4, 25 °C, upper limit 2.5 mg/mL |  | kinetic solubility | 2260 µg/mL (≈ 7.79 mM)
[2H]C([2H])([18F])[C@]([2H])(N)C(=O)O | PET | athymic nude mice, U-87 MG | dose not given, 20 min post-injection | relative to: tumour over muscle | tumour-to-muscle ratio | 2.1 ± 0.5
C=C/C=C/C[C@@H](C)[C@@H](O)[C@H]1C(=O)N[C@@H](CC)C(=O)N(C)CC(=O)N(C)[C@@H](CC(C)C)C(=O)N[C@@H](C(C)C)C(=O)N(C)[C@@H](CC(C)C)C(=O)N[C@@H](C)C(=O)N[C@H](C)C(=O)N(C)[C@@H](CC(C)C)C(=O)N(C)[C@@H](CC(C)C)C(=O)N(C)[C@@H](C(C)C)C(=O)N1C |  | Wistar Kyoto rat, male, plasma | ip, 0.5 mg/kg/day, day 28, at sacrifice |  | plasma Mg2+ | 0.86 ± 0.04 mmol/L
CC(C)[C@@H]1NC(=O)CNC(=O)[C@H](CC(N)=O)NC(=O)[C@H](CCCNC(=N)N)NC(=O)[C@H](Cc2ccc(O)cc2)NC(=O)[C@H](C(C)C)NC(=O)[C@@H](NC(=O)[C@@H](NC(=O)[C@H](CC(N)=O)NC(=O)[C@H](Cc2c[nH]c3ccccc23)NC(=O)[C@H](C)NC(=O)[C@H](Cc2ccccc2)NC(=O)CNC(=O)[C@H](CCCCN)NC(=O)[C@H](Cc2ccccc2)NC(=O)[C@H](Cc2ccccc2)NC(=O)[C@H](CCCCN)NC(=O)OCC2c3ccccc3-c3ccccc32)C(C)C)CSSC[C@@H](C(=O)N[C@@H](Cc2c[nH]cn2)C(=O)N[C@@H](CCCNC(=N)N)C(=O)N[C@@H](CCCNC(=N)N)C(=O)N[C@@H](C)C(=O)N[C@@H](CC(N)=O)C(N)=O)NC(=O)[C@H](C(C)C)NC(=O)[C@H](CCCNC(=N)N)NC1=O |  | ICR mouse | ip, 5 mg/kg | direction not given | spasm score | 0
O=C(c1cc(Cc2n[nH]c(=O)c3ccccc23)ccc1F)N1CC(CNC2CC2)C1 |  | Wistar Han rat, male, blood | oral, 30 mg/kg daily, 4 weeks |  | haemoglobin | 15.6 ± 1.2 g/dL
CCN(CC)CCOc1ccc(-c2nnn(Cc3ccc(OC)cc3)c2N)cc1 |  | beagle dog | oral, at least 40 mg/kg |  | systolic blood pressure increase | ≤ 14%
N#[11C]c1ccc(-c2csc(NN=C3CCCC3)n2)cc1 |  | C57BL/6 mice, male, kidney | intravenous, 3 MBq, 60 min |  | radioactivity uptake | 4.08 ± 0.09 %ID/g
COc1cnc2cccc(N3CCc4c(cc(Cn5ccnc5)cc4-c4cn(C)nc4C(F)(F)F)C3=O)c2c1 |  | CD-1 mice | intraperitoneal, 50 mg/kg once daily, day 5 |  | body weight | 30 ± 1 g
C#Cc1c(F)ccc2cc(O)cc(-c3ncc4c(N5CC6CCC(C5)N6C(=O)OC(C)OC(=O)CCCCCCC)nc(OC[C@@]56CCCN5C[C@H](F)C6)nc4c3F)c12 (some centres unmarked) | chemical stability | simulated intestinal fluid | 1 µM, 30 min |  | compound remaining | 83.3%
CC[C@H](C)[C@H](NC(=O)[C@H](CCCCN)NC(=O)CNC(=O)[C@H](CC(C)C)NC(=O)[C@H](Cc1ccccc1)NC(=O)[C@H](CCCCN)NC(=O)[C@H](CO)NC(=O)[C@H](Cc1ccccc1)NC(=O)[C@H](Cc1c[nH]c2ccccc12)NC(=O)[C@H](CCC(N)=O)NC(=O)[C@@H](NC(=O)[C@H](Cc1ccccc1)NC(=O)CCCCCNC(=O)CN1CCN(CC(=O)O)CCN(CC(=O)O)CCN(CC(=O)O)CC1)C(C)C)C(=O)N[C@@H](CCC(=O)O)C(=O)N1CCC[C@H]1C(=O)N[C@@H](CC(=O)O)C(=O)N[C@H](C(=O)N[C@@H](CO)C(=O)N[C@@H](CCC(N)=O)C(=O)N[C@H](C(=O)N[C@@H](CCC(N)=O)C(=O)N[C@@H](CC(=O)O)C(=O)N1CCC[C@H]1C(=O)N[C@@H](CC(N)=O)C(=O)N[C@@H](CC(=O)O)C(=O)N[C@@H](CCC(N)=O)C(=O)N[C@@H](Cc1ccc(O)cc1)C(=O)N[C@@H](CCC(=O)O)C(=O)N1CCC[C@H]1C(=O)N[C@@H](Cc1ccccc1)C(=O)O)C(C)C)C(C)C [copper-64 labelled] |  | C57BL/6 mice, brain | added: LPS 0.1 mg/kg intratracheal |  | tissue uptake | 0.11 ± 0.01 %ID/g
CSCC[C@@H]1NC(=O)[C@H](C(C)C)NC(=O)[C@H](CCCNC(=N)N)NC(=O)[C@@H]2CCCN2C(=O)CNC(=O)[C@@H](NC(=O)CNC(=O)[C@H](CO)NC(=O)CNC(=O)[C@H](CO)NC(=S)Nc2ccc(C[C@H]3CN(CC(=O)O)CCN(CC(=O)O)CCN3CC(=O)O)cc2)CSSC[C@@H](C(N)=O)NC(=O)[C@@H]2CCCN2C(=O)CNC(=O)[C@H](CCC(=O)O)NC(=O)[C@H](CC(=O)O)NC(=O)[C@H](CC(=O)O)NC(=O)CNC(=O)[C@H](CC(C)C)NC(=O)[C@H](Cc2c[nH]cn2)NC(=O)[C@H](CC(C)C)NC(=O)CNC(=O)[C@H](Cc2c[nH]cn2)NC1=O [copper-64 labelled] | dynamic PET | CD rat, myocardial infarction model, fibrotic infarct myocardium | intravenous, 18.5 MBq, 15 to 60 min |  | half-life | 25 ± 2.5 min
CSCC[C@H](N)C(=O)N[C@@H](C)C(=O)N[C@@H](CCCNC(=N)N)C(=O)N[C@@H](CCCNC(=N)N)C(=O)N[C@@H](CC(=O)O)C(=O)N[C@@H](CCCCN)C(=O)N[C@H](C(=O)N[C@@H](CC(=O)O)C(=O)N[C@@H](Cc1ccccc1)C(=O)N[C@@H](C)C(=O)N[C@@H](CCCNC(=N)N)C(=O)N[C@@H](CCCNC(=N)N)C(=O)N[C@@H](CCCNC(=N)N)C(=O)N[C@@H](CCCNC(=N)N)C(=O)NCCCCCC(=O)NCCCCC(NC(=O)CCCCCNC(=O)[C@H](CCCNC(=N)N)NC(=O)[C@H](CCCNC(=N)N)NC(=O)[C@H](CCCNC(=N)N)NC(=O)[C@H](CCCNC(=N)N)NC(=O)[C@H](C)NC(=O)[C@H](Cc1ccccc1)NC(=O)[C@H](CC(=O)O)NC(=O)[C@@H](NC(=O)[C@H](CCCCN)NC(=O)[C@H](CC(=O)O)NC(=O)[C@H](CCCNC(=N)N)NC(=O)[C@H](CCCNC(=N)N)NC(=O)[C@H](C)NC(=O)[C@@H](N)CCSC)[C@@H](C)O)C(=O)NCCCCC(NC(=O)C(CCCCNC(=O)CCCCCNC(=O)[C@H](CCCNC(=N)N)NC(=O)[C@H](CCCNC(=N)N)NC(=O)[C@H](CCCNC(=N)N)NC(=O)[C@H](CCCNC(=N)N)NC(=O)[C@H](C)NC(=O)[C@H](Cc1ccccc1)NC(=O)[C@H](CC(=O)O)NC(=O)[C@@H](NC(=O)[C@H](CCCCN)NC(=O)[C@H](CC(=O)O)NC(=O)[C@H](CCCNC(=N)N)NC(=O)[C@H](CCCNC(=N)N)NC(=O)[C@H](C)NC(=O)[C@@H](N)CCSC)[C@@H](C)O)NC(=O)CCCCCNC(=O)[C@H](CCCNC(=N)N)NC(=O)[C@H](CCCNC(=N)N)NC(=O)[C@H](CCCNC(=N)N)NC(=O)[C@H](CCCNC(=N)N)NC(=O)[C@H](C)NC(=O)[C@H](Cc1ccccc1)NC(=O)[C@H](CC(=O)O)NC(=O)[C@@H](NC(=O)[C@H](CCCCN)NC(=O)[C@H](CC(=O)O)NC(=O)[C@H](CCCNC(=N)N)NC(=O)[C@H](CCCNC(=N)N)NC(=O)[C@H](C)NC(=O)[C@@H](N)CCSC)[C@@H](C)O)C(N)=O)[C@@H](C)O (some centres unmarked) |  | C57BL/6 mouse female, spine | dose not given, 6 h | relative to: total | mean tissue distribution | 5.5%
N=C(N)NCCC[C@@H](NC(=O)[C@H](N)Cc1c[nH]c2ccccc12)C(=O)N[C@H](CCCCN)C(=O)N[C@H](Cc1c[nH]c2ccccc12)C(=O)N[C@H](CCCNC(=N)N)C(=O)N[C@H](CCCCN)C(=O)N[C@H](Cc1c[nH]c2ccccc12)C(=O)N[C@H](CCCNC(=N)N)C(=O)N[C@H](CCCCN)C(=O)N[C@H](Cc1c[nH]c2ccccc12)C(=O)N[C@H](CCCNC(=N)N)C(=O)N[C@H](CCCCN)C(N)=O |  | mouse | intraperitoneal, 40 mg/kg single dose, day 7 |  | survival | 75%
